{"data": "Assay results gathered from unrelated publications", "note": "A part holds a random share of what one study measured. Substitutions count along the parent as printed."}
{"data": "Series 1", "target": "Sal-like protein 4, full length isoform B (SALL4, Homo sapiens, UniProt Q9UJQ4-2, residues 1-616)", "method": "universal PBM", "form": "double-stranded DNA, one strand shown", "medium": "in vitro", "tested at": "not given", "notes": "8-mer, flanks averaged, mean of replicates", "direction": "higher = stronger binding"}
{"Strand": "ATGCGTTG", "E-score": 0.122}
{"Strand": "CATCTTGA", "E-score": -0.00573}
{"Strand": "ATAACTTG", "E-score": 0.271}
{"Strand": "AATTGCTA", "E-score": 0.239}
{"Strand": "CCACCCGA", "E-score": -0.126}
{"Strand": "CGCTACGC", "E-score": -0.24}
{"Strand": "GCTGTAAA", "E-score": 0.112}
{"Strand": "GACACCTC", "E-score": -0.243}
{"data": "Series 2", "target": "CEP164, C-terminal peptide (human)", "method": "DHFR complementation, deep sequencing", "medium": "yeast", "notes": "single substitutions, model-inferred values", "baseline": "wild type", "direction": "higher = weaker binding", "parent": "PDZK1, PDZ domain 2 (human); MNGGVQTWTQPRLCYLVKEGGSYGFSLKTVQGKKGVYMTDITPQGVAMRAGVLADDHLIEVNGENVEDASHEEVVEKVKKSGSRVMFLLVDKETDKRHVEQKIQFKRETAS; partner HNRVKVYRF"}
{"Substitution": "K96Y", "binding free energy change [kcal/mol]": -0.0253}
{"Substitution": "K102L", "binding free energy change [kcal/mol]": -0.0415}
{"Substitution": "K18H", "binding free energy change [kcal/mol]": 0.681}
{"Substitution": "M38L", "binding free energy change [kcal/mol]": 0.176}
{"Substitution": "E19D", "binding free energy change [kcal/mol]": 0.0279}
{"Substitution": "D91G", "binding free energy change [kcal/mol]": -0.21}
{"Substitution": "E60V", "binding free energy change [kcal/mol]": 0.242}
{"Substitution": "E93A", "binding free energy change [kcal/mol]": -0.0933}
{"data": "Series 3", "target": "Phosphate system positive regulatory protein PHO4, full length, GST-tagged (PHO4, Saccharomyces cerevisiae, UniProt P07270, residues 1-312)", "method": "competition protein-binding microarray", "form": "double-stranded DNA, one strand shown", "medium": "in vitro", "tested at": "2 µM", "notes": "whole 60-bp probe, lowest competitor level", "added": "Cbf1 competitor, 0.05 µM", "direction": "higher = stronger binding", "Construct (chain)": "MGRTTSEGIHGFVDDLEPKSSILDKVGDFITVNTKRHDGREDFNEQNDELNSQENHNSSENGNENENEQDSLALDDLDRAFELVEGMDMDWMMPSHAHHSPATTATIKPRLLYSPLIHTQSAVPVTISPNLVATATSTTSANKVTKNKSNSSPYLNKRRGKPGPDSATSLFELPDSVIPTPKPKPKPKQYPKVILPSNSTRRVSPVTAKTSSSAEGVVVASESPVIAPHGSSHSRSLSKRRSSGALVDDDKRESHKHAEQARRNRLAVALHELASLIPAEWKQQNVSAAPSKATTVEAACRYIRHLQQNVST"}
{"Strand": "AGGCTGCTTGATGTATTCGTGCGGAAAAAAAAAAAGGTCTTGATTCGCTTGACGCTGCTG", "fluorescence intensity [a.u.]": 6820}
{"Strand": "GTCTGCCGTTTGTTACATGTGGATGTGTTACTGAGTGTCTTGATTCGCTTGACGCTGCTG", "fluorescence intensity [a.u.]": 10200}
{"Strand": "AGGCAAGGCGTACATGGCGTGACGGAGGGTTCAATGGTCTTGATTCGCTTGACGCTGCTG", "fluorescence intensity [a.u.]": 5310}
{"Strand": "CAGTGAGATTACGCAGCCGTGCGATTCAGGGACAGAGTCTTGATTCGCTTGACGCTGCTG", "fluorescence intensity [a.u.]": 4260}
{"Strand": "TTAAGTTTGTCACCGCTCGTGGCCGCTGTACTGTCTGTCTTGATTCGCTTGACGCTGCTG", "fluorescence intensity [a.u.]": 8440}
{"Strand": "CGTCCTAGTGATTGCTGCGTGGGTGCCATGAGGAAGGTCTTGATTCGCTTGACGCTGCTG", "fluorescence intensity [a.u.]": 10200}
{"Strand": "CTTTCCCGATCTTGAATGGTGGGTGTAGCACATTTGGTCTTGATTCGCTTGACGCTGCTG", "fluorescence intensity [a.u.]": 4340}
{"Strand": "TCTGATACGTATCACCACGTGGCCGGTACTTGTTCTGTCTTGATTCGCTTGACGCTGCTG", "fluorescence intensity [a.u.]": 17500}
{"data": "Single results of other studies", "parent": "viral docking peptide; TSVRRALFTGGSD; partner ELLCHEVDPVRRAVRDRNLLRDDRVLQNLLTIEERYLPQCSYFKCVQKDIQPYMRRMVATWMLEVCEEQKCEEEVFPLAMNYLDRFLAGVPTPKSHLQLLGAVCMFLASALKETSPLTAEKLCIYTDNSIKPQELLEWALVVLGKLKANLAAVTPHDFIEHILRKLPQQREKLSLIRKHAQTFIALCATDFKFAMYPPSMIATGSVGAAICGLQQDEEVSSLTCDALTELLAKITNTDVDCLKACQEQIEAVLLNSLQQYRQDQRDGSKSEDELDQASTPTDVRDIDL"}
{"Substitution": "TSVFRALFTGGSD [R4F]", "target": "CCND2, cyclin fold, Cln2 fusion (human)", "assay": "yeast growth competition, sequencing", "test system": "yeast", "setting": "weak parent motif", "scale": "baseline: not given, higher = stronger binding", "endpoint": "normalised enrichment score", "result": -0.404}
